{"data": "Measured values of several laboratories", "note": "Each numbered part is a random draw from the data of one study; scales do not carry over between parts. Substitutions count along the parent as printed."}
{"data": "Study 1", "target": "Centromere-binding protein 1, full length, His-tagged (CBF1, Saccharomyces cerevisiae, UniProt P17106, residues 1-351)", "technique": "competition protein-binding microarray", "molecule type": "double-stranded DNA, one strand shown", "sample": "in vitro", "tested at": "2 µM", "notes": "whole 60-bp probe, lowest competitor level", "added": "Pho4 competitor, 0.05 µM", "reading": "higher = stronger binding", "shared flanks, not repeated": "… GTCTTGATTCGCTTGACGCTGCTG", "sequence of UniProt P17106 (whole entry, looked up)": "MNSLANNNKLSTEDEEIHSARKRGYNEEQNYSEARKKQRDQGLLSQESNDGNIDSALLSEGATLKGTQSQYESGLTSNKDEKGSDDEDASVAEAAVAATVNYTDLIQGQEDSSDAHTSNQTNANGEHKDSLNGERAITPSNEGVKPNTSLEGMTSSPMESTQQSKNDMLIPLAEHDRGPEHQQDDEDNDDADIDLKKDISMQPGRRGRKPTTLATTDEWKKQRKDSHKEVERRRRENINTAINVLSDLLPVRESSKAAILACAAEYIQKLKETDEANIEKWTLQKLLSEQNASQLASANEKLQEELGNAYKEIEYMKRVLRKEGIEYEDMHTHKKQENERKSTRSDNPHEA"}
{"Oligonucleotide": "CTTCTGTAAATTTTTCACGTGGCTTGACGCGCCCCG", "fluorescence intensity [a.u.]": 614}
{"Oligonucleotide": "AAATTACTAAGTTGTGGAGTGGGTGACGCCGTATGA", "fluorescence intensity [a.u.]": 59.3}
{"Oligonucleotide": "ATTTTTTGATATCCACACGTTATTGAGCTCATTGAC", "fluorescence intensity [a.u.]": 107}
{"Oligonucleotide": "ATCTTTCCACCCTGGCACGTGTTTCTTGTACATTTG", "fluorescence intensity [a.u.]": 2310}
{"Oligonucleotide": "CTTTCCCGATCTTGTTTCGTGGGTGTAGCACATTTG", "fluorescence intensity [a.u.]": 81}
{"Oligonucleotide": "CGGGGTTAAGTTTGTCACTCAACTTGCTTGCAGCAG", "fluorescence intensity [a.u.]": 66.7}
{"Oligonucleotide": "TGGTCTAGTCTTACCCACGCACTCGCAGGAACAAAC", "fluorescence intensity [a.u.]": 59.1}
{"Oligonucleotide": "GTATTGGGGGCTCGGCACGGCGGCTTTAGAACGGCT", "fluorescence intensity [a.u.]": 86.6}
{"Oligonucleotide": "CTTGTCATCTCTATTCACATGGGGTGGTATCTGTAT", "fluorescence intensity [a.u.]": 107}
{"Oligonucleotide": "CTTCTGTAAATTTTTCACGTGTAGTGAAGCGCCCCG", "fluorescence intensity [a.u.]": 626}
{"Oligonucleotide": "GCATCAGTCGGTCAACATGCGCAGGATGTTCCGTTT", "fluorescence intensity [a.u.]": 81.6}
{"Oligonucleotide": "GCCAAGATGATTGAAAACATGACAAAGGAGAAAGTC", "fluorescence intensity [a.u.]": 105}
{"Oligonucleotide": "CTTCTGTAAATTTGTCACCTTACTTGACGCGCCCCG", "fluorescence intensity [a.u.]": 86.8}
{"data": "Study 2", "target": "PABPC1L2, full length, GST fusion (mouse, UniProt A0ABA7IW68)", "technique": "RNAcompete", "molecule type": "RNA", "sample": "in vitro", "tested at": "20 nM", "notes": "7-mer, probes averaged, single round", "reference": "mean of 7-mers", "reading": "higher = stronger binding", "Target sequence (chain)": "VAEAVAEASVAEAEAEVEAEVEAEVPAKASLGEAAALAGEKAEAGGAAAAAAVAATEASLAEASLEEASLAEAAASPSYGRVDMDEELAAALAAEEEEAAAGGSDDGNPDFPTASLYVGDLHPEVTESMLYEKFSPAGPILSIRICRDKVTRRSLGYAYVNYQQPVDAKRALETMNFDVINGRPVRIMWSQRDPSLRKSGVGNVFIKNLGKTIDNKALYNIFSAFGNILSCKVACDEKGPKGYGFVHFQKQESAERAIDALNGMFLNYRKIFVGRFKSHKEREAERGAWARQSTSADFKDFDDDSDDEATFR"}
{"Oligonucleotide": "AUAUUCU", "7-mer Z-score": -0.226}
{"Oligonucleotide": "AUACAUG", "7-mer Z-score": 0.0334}
{"Oligonucleotide": "CGAACUC", "7-mer Z-score": -0.233}
{"Oligonucleotide": "CAGAUAG", "7-mer Z-score": 0.075}
{"Oligonucleotide": "UUAUGGC", "7-mer Z-score": 0.108}
{"Oligonucleotide": "CCAAUCU", "7-mer Z-score": -0.262}
{"Oligonucleotide": "ACCUAUA", "7-mer Z-score": -0.0138}
{"Oligonucleotide": "AACGCUU", "7-mer Z-score": -0.00652}
{"Oligonucleotide": "GCGUCCA", "7-mer Z-score": -0.2}
{"Oligonucleotide": "GCGAAUG", "7-mer Z-score": -0.0935}
{"Oligonucleotide": "UGUUGCC", "7-mer Z-score": -0.36}
{"Oligonucleotide": "CUGUGUA", "7-mer Z-score": -0.15}
{"Oligonucleotide": "GUCAAAC", "7-mer Z-score": 0.0352}
{"Oligonucleotide": "AUGUAGU", "7-mer Z-score": -0.215}
{"Oligonucleotide": "AAUAUUG", "7-mer Z-score": 0.267}
{"Oligonucleotide": "CCGGUUU", "7-mer Z-score": -0.42}
{"Oligonucleotide": "CCUCCCG", "7-mer Z-score": -0.463}
{"Oligonucleotide": "AUCGCUC", "7-mer Z-score": -0.316}
{"Oligonucleotide": "AUAAGCG", "7-mer Z-score": 0.0732}
{"Oligonucleotide": "UUGUAUG", "7-mer Z-score": -0.286}
{"Oligonucleotide": "ACAGGAC", "7-mer Z-score": 0.352}
{"Oligonucleotide": "GAAUGCG", "7-mer Z-score": -0.0772}
{"Oligonucleotide": "AAUCGGU", "7-mer Z-score": -0.0573}
{"Oligonucleotide": "CGGAGAG", "7-mer Z-score": 0.0279}
{"Oligonucleotide": "ACUUCUU", "7-mer Z-score": -0.22}
{"data": "Study 3", "target": "CCND2, cyclin fold, Cln2 fusion (human)", "technique": "yeast growth competition, sequencing", "sample": "yeast", "notes": "weak parent motif", "reference": "not given", "reading": "higher = stronger binding", "parent": "USP37 docking peptide (human); PSAKRSLGFLPQP; partner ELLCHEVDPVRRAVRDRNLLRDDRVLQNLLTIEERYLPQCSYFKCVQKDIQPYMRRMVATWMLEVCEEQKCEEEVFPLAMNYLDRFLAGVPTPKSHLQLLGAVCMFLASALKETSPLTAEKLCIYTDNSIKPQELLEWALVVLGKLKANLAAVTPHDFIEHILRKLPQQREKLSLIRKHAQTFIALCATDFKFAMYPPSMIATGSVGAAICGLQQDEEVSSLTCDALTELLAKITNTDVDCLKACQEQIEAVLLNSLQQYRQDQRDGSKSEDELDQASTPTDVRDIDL"}
{"Substitution": "R5A", "normalised enrichment score": 0.0726}
{"Substitution": "K4A", "normalised enrichment score": 0.389}
{"Substitution": "L7A", "normalised enrichment score": -0.218}
{"Substitution": "G8A", "normalised enrichment score": 0.0668}
{"Substitution": "S2A", "normalised enrichment score": 0.0449}
{"Substitution": "F9A", "normalised enrichment score": -0.186}
{"data": "Study 4", "target": "ABI1, truncated, D143A, DHFR fusion (Arabidopsis thaliana)", "technique": "DHFR PCA, deep sequencing", "sample": "yeast", "notes": "methotrexate growth selection, single substitutions", "added": "(+)-ABA 0.0091 µM", "reference": "wild-type fitted maximum", "reading": "higher = stronger binding", "parent": "PYL1, truncated, DHFR fusion (Arabidopsis thaliana); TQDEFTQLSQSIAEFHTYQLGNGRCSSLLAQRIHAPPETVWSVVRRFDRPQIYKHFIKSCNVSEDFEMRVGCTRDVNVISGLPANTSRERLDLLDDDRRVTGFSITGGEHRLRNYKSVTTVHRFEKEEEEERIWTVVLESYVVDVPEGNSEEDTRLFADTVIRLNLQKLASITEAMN"}
{"Substitution": "L8Q", "relative binding score [%]": 5.92}
{"Substitution": "T119R", "relative binding score [%]": -3.49}
{"Substitution": "V78F", "relative binding score [%]": 112}
{"Substitution": "G107H", "relative binding score [%]": 10.3}
{"Substitution": "Y53S", "relative binding score [%]": 2.33}
{"Substitution": "F5I", "relative binding score [%]": 34.8}
{"Substitution": "V40T", "relative binding score [%]": -1.68}
{"Substitution": "I133F", "relative binding score [%]": 6.77}
{"Substitution": "N22I", "relative binding score [%]": 23}
{"Substitution": "Q2M", "relative binding score [%]": 54.2}
{"data": "Study 5", "target": "Fragile X messenger ribonucleoprotein 1, C-terminal low-complexity region (Fmr1, Mus musculus, UniProt P35922)", "technique": "RNA Bind-n-Seq", "molecule type": "RNA", "sample": "in vitro", "tested at": "200 nM", "notes": "whole 134-nt RNA, ends assumed", "added": "150 mM LiCl", "reference": "input library", "reading": "higher = stronger binding", "all molecules": "7-deaza-guanosine replaces G", "shared flanks, not repeated": "GGGAGUUCUACAGUCCGACGAUC … UGGAAUUCUCGGGUGUCAAGG"}
{"Oligonucleotide": "CAAGUCCUGUGCUACACAUCGUAUGUACCGAAUCGGGCCCCGGGCCCCGGCCCCGGAAAGUAUUAUGUUACGCCGUUCGGAUCUGCACUU", "log2 enrichment": -1.99}
{"Oligonucleotide": "UCCUGUGCUACACAUCGUAUGUACCGAAUCGGGGUUUUUUUGGGGAAAAAGGGGAGGGGAAAGUAUUAUGUUACGCCGUUCGGAUCUGCA", "log2 enrichment": -0.915}
{"Oligonucleotide": "CAAGUCCUGUGCUACACAUCGUAUGUACCGAAUCGGAAAGGGGAAAGGAAAGGGGAAAGUAUUAUGUUACGCCGUUCGGAUCUGCACUUC", "log2 enrichment": -0.0576}
{"Oligonucleotide": "AGUUACUCAGUUCAUUUUGGAUAACUACAUUGAAAGAGGAAAAGGAUCUGCUUGCAGAAUAGUUUGUACUCAGCCAAGAAGAAUUAGUGC", "log2 enrichment": -3.82}
{"Oligonucleotide": "CCUCAAGUCCUGUGCUACACAUCGUAUGUACCGAAUCGGGAAGGAAGGAAGGGAAAGUAUUAUGUUACGCCGUUCGGAUCUGCACUUCCA", "log2 enrichment": -1.1}
{"Oligonucleotide": "UGGCCCUGGUGGCAUGCGGGGAGGAAGAGGUGGACUCAUGGAUCGUGGUGGUCCCGGUGGAAUGUUCAGAGGUGGCCGUGGUGGAGACAG", "log2 enrichment": 0.672}
{"Oligonucleotide": "CCUGUGCUACACAUCGUAUGUACCGAAUCGGGGAAAAAAAGGGGAGGGGUUUUUUUGGGGAAAGUAUUAUGUUACGCCGUUCGGAUCUGC", "log2 enrichment": -0.4}
{"Oligonucleotide": "UCCUGUGCUACACAUCGUAUGUACCGAAUCAAACCCCCCCAAACCCCCCCAAAUUUAAAAAAGUAUUAUGUUACGCCGUUCGGAUCUGCA", "log2 enrichment": 1.92}
{"note": "Some of these lines once more (study 2):"}
{"Oligonucleotide": "AUAUUCU", "7-mer Z-score": -0.226}
{"Oligonucleotide": "AUACAUG", "7-mer Z-score": 0.0334}
{"Oligonucleotide": "CGAACUC", "7-mer Z-score": -0.233}
{"Oligonucleotide": "CAGAUAG", "7-mer Z-score": 0.075}
{"Oligonucleotide": "UUAUGGC", "7-mer Z-score": 0.108}
{"Oligonucleotide": "CCAAUCU", "7-mer Z-score": -0.262}
{"Oligonucleotide": "ACCUAUA", "7-mer Z-score": -0.0138}
{"Oligonucleotide": "AACGCUU", "7-mer Z-score": -0.00652}
{"Oligonucleotide": "GCGUCCA", "7-mer Z-score": -0.2}
